{"data": "Experimental data gathered from unrelated publications", "ZAP70": "Tyrosine-protein kinase ZAP-70 (ZAP70, Homo sapiens, UniProt P43403)", "Tripartite terminase subunit 3 C-terminal nuclease domain": "Tripartite terminase subunit 3, C-terminal nuclease domain (Human betaherpesvirus 5, UniProt P16732)", "MAPK14": "Mitogen-activated protein kinase 14 (MAPK14, Homo sapiens, UniProt Q16539)", "note": "Lines come from different studies, so protocols differ. ± marks the error that the study gave.", "UniProt P16732, sequence (whole entry, looked up)": "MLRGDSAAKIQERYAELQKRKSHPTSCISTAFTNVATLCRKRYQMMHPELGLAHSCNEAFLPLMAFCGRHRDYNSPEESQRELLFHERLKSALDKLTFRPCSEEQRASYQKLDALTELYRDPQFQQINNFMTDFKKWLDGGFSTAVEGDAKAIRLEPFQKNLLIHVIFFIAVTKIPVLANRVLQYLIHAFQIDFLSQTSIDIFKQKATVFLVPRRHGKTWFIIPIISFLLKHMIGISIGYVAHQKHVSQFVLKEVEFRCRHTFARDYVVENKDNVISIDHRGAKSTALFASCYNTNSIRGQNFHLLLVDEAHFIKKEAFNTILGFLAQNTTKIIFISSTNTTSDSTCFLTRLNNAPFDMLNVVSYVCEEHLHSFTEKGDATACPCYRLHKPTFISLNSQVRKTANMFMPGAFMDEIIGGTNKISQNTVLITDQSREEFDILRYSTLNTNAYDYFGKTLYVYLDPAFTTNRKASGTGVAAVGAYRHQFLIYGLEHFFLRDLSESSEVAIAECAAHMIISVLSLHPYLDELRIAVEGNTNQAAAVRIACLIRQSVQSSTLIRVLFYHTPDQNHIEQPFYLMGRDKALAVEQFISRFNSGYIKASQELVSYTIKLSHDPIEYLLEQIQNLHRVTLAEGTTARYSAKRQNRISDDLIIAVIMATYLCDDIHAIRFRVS", "UniProt Q16539, sequence (whole entry, looked up)": "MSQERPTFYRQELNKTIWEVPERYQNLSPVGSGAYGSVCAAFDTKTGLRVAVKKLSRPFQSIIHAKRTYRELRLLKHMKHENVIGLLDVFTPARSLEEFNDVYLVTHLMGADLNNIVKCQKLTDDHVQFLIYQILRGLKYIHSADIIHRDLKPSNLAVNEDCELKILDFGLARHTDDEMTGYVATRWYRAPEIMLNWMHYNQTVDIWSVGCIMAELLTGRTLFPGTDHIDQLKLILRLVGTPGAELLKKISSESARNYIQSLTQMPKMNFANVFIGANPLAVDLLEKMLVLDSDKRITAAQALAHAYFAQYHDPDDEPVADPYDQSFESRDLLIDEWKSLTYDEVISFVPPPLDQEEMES", "UniProt P43403, sequence (whole entry, looked up)": "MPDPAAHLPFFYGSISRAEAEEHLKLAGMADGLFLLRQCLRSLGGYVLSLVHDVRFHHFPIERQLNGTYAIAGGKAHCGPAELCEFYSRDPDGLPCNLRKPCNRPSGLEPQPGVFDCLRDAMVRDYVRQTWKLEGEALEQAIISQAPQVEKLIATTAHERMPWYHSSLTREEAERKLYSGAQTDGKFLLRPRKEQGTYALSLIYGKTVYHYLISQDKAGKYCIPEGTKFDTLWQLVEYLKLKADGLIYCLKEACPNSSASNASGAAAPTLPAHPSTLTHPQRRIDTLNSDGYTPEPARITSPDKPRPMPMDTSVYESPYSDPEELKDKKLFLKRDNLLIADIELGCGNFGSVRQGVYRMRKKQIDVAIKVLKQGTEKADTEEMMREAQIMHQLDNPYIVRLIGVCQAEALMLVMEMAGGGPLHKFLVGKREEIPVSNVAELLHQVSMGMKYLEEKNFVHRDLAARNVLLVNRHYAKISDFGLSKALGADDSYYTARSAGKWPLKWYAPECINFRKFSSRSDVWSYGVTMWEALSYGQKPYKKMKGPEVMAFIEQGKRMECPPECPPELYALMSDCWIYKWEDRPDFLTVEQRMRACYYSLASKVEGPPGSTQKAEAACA", "UniProt Q9Y5L0, sequence (whole entry, looked up)": "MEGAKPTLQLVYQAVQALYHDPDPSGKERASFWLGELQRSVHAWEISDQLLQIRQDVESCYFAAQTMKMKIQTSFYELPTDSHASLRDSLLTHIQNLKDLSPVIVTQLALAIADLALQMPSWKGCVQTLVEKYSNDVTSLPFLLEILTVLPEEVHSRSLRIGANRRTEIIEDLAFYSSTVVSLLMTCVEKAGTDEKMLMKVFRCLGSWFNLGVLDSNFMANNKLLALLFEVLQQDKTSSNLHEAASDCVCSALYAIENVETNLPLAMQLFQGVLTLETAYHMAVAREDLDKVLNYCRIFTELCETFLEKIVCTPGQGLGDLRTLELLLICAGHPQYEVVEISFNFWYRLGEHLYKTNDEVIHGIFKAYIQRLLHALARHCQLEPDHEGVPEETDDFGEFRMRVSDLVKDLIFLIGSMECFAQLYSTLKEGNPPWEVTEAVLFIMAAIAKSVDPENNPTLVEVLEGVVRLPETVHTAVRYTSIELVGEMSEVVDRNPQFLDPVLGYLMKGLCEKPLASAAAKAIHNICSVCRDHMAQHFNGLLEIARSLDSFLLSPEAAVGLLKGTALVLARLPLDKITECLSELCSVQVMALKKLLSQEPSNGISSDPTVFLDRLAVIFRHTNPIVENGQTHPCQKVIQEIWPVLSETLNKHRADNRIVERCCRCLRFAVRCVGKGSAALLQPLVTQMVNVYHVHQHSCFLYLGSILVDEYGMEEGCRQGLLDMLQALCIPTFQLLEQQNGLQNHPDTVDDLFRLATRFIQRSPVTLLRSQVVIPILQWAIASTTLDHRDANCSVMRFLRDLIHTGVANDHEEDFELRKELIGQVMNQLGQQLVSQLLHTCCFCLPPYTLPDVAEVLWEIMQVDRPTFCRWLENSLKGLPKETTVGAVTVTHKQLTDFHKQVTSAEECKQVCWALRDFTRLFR", "UniProt P78417, sequence (whole entry, looked up)": "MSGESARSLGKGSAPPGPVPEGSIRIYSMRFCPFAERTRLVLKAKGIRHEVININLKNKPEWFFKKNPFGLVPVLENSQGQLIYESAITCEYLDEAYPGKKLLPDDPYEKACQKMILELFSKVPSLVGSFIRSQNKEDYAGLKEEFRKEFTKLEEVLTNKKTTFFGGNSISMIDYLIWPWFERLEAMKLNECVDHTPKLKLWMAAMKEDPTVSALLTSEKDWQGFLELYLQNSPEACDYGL", "UniProt Q96CH1, sequence (whole entry, looked up)": "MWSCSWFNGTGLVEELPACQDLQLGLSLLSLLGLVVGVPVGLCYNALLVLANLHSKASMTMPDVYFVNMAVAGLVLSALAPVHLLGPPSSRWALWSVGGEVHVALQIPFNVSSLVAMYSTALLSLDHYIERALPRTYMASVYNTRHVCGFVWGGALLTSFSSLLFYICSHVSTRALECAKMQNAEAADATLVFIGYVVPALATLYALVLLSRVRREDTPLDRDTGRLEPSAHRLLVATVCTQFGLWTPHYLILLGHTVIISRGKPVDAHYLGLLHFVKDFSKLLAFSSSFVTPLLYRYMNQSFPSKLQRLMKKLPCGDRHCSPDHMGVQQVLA", "UniProt P30550, sequence (whole entry, looked up)": "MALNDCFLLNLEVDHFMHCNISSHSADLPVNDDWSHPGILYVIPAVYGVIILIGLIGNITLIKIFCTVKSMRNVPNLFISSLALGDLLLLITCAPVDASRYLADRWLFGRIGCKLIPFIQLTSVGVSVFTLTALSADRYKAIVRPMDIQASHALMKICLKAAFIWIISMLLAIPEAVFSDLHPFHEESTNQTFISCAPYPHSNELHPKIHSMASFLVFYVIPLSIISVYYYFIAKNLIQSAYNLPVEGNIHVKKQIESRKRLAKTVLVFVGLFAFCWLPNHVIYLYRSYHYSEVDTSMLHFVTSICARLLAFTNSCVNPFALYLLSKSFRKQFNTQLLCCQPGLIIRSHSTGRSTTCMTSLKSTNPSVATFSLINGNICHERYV", "UniProt Q08499, sequence (whole entry, looked up)": "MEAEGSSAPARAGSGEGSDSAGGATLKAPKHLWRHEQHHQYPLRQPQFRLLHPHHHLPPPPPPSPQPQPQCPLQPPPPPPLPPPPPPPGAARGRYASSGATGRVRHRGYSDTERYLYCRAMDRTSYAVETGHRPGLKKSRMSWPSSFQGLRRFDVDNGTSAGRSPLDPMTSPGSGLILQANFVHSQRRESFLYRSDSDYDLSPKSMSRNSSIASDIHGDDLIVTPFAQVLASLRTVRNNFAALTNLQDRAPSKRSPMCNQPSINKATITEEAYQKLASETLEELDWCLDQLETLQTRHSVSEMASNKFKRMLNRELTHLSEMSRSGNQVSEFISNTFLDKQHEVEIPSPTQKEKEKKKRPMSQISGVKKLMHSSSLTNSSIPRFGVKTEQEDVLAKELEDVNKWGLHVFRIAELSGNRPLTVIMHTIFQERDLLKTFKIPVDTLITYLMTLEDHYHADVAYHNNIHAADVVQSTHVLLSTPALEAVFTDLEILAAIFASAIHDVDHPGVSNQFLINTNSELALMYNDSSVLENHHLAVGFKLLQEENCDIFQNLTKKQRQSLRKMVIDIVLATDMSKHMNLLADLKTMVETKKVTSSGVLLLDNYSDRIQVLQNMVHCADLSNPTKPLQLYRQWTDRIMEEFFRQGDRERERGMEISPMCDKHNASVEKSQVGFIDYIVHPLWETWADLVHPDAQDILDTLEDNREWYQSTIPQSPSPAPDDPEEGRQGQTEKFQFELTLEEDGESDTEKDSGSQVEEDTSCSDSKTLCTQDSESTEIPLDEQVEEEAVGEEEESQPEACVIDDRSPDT"}
{"Structure (SMILES)": "COc1cc2c(Oc3ccc4[nH]c(C)cc4c3F)ccnc2cc1OCC1(N)CC1", "test system": "paediatric recurrent refractory sarcoma", "setting": "10 mg", "quantity": "grade 3 weight loss", "result": "0%"}
{"Structure (SMILES)": "Oc1ccc2c3c1O[C@H]1[C@@H](O)CC[C@@]4(O)[C@@H](C2)N(CC2CCC2)CC[C@]314", "target or system": "G-protein coupled receptor 146 (GPR146, Homo sapiens, UniProt Q96CH1)", "assay": "β-arrestin recruitment, TANGO luminescence, refers to: GPR146", "setting": "concentration not given", "how to read": "reference: basal luminescence", "quantity": "log2 fold change", "result": 0.2}
{"Structure (SMILES)": "O=C(Nc1ccc2c(c1)B(O)OC2)c1cccc(OCc2ccc(Cl)cc2)c1", "target or system": "Genome polyprotein, NS2B-NS3 protease (dengue virus type 2, UniProt P29990)", "assay": "enzyme activity, FRET", "test system": "dengue virus serotype 2", "setting": "50 µM, with: substrate 50 µM", "quantity": "inhibition", "result": "28 ± 7%"}
{"Structure (SMILES)": "CO[C@H]1C[C@@H]2CC[C@@H](C)[C@@](O)(O2)C(=O)C(=O)N2CCCC[C@H]2C(=O)O[C@H]([C@H](C)C[C@@H]2CC[C@@H](OC(=O)NCCOCCOCCOCCOCCOCCOCCOCCOCCC(=O)N3CCc4cc(Cn5nc(-c6ccc7oc(N)nc7c6)c6c(N)ncnc65)ccc4C3)[C@H](OC)C2)C[C@@H](O)[C@H](C)/C=C(\\C)[C@@H](O)[C@@H](OC)C(=O)[C@H](C)C[C@H](C)/C=C/C=C/C=C/1C", "test system": "patients with advanced solid tumours", "setting": "intravenous, 12 mg weekly, grade ≥3", "quantity": "incidence of nausea TEAE", "result": "8.3%"}
{"Structure (SMILES)": "CC[C@H](C)[C@H](NC(=O)[C@H](Cc1ccccc1)NC(=O)[C@H](CCC(=O)O)NC(=O)[C@H](CCCNC(=N)N)NC(=O)[C@H](C)NC(=O)[C@H](C)NC(=O)[C@H](CCC(N)=O)NC(=O)[C@H](CCC(=O)O)NC(=O)[C@H](CCC(=O)O)NC(=O)[C@H](CC(C)C)NC(=O)[C@H](Cc1ccc(O)cc1)NC(=O)[C@H](CO)NC(=O)[C@H](CO)NC(=O)[C@@H](NC(=O)[C@H](CC(=O)O)NC(=O)[C@H](CO)NC(=O)[C@@H](NC(=O)[C@H](Cc1ccccc1)NC(=O)[C@@H](NC(=O)CNC(=O)[C@H](CCC(=O)O)NC(=O)[C@H](C)NC(=O)CCc1c[nH]cn1)[C@@H](C)O)[C@@H](C)O)C(C)C)C(=O)N[C@@H](C)C(=O)N[C@@H](Cc1c[nH]c2ccccc12)C(=O)N[C@@H](CC(C)C)C(=O)N[C@H](C(=O)N[C@@H](CCCNC(=N)N)C(=O)NCC(=O)N[C@@H](CCCNC(=N)N)C(=O)N[C@@H](CCCCNC(=O)COCCOCCNC(=O)COCCOCCNC(=O)CC[C@H](NC(=O)CCCCCCCCCCCCCCCCC(=O)O)C(=O)O)C(=O)NCC(=O)NCC(=O)N[C@@H](CO)C(=O)N[C@@H](CCCCNc1c(NCCCCCN(O)C(=O)CCC(=O)NCCCCCN(O)C(=O)CCC(=O)NCCCCCN(O)C(C)=O)c(=O)c1=O)C(=O)O)C(C)C [zirconium-89 labelled]", "assay": "ex vivo gamma counting", "test system": "rat, lung", "setting": "subcutaneous, 3 nmol/kg, 4 h, with: [89Zr]-labelled peptide", "quantity": "tissue uptake", "result": "1.02 %ID/g"}
{"Structure (SMILES)": "CN1CCN(c2cc(-c3ccncc3)c(-c3ccc4ccccc4c3)nn2)CC1", "target or system": "Vasopressin V2 receptor (AVPR2, Homo sapiens, UniProt P30518)", "assay": "antagonist, FLIPR", "setting": "10 µM", "quantity": "inhibition", "result": "-4.8%"}
{"Structure (SMILES)": "O=C(Nc1cccnn1)N1CCC(=Cc2cccc(Oc3ccc(C(F)(F)F)cn3)c2)CC1", "target or system": "ZAP70", "assay": "kinase activity, inhibitor", "setting": "10 µM, human, with: poly(Glu,Tyr)", "quantity": "inhibition", "result": "-3%"}
{"Structure (SMILES)": "O=C(Nc1cccc(C(=O)Nc2ccc3c(c2)B(O)OC3)c1)c1ccccc1", "target or system": "Genome polyprotein, NS2B-NS3 protease (West Nile virus, UniProt P06935)", "assay": "enzyme activity, FRET", "setting": "50 µM, with: substrate 50 µM", "quantity": "inhibition", "result": "42 ± 1%"}
{"Structure (SMILES)": "O=c1[nH]c2sc3c(c2c(=O)n1O)CCC3", "target or system": "Tripartite terminase subunit 3 C-terminal nuclease domain", "assay": "endonuclease activity, ELISA", "setting": "20 µM, with: dsDNA", "quantity": "inhibition", "result": "90%"}
{"Structure (SMILES)": "CC[C@H](C)[C@@H]1NC(=O)[C@@H]2CCCN2C(=O)[C@H](CC(C)C)NC(=O)[C@H](CC(C)C)NC(=O)CNC(=O)[C@@H](NC(=O)[C@@H](NC(=O)[C@H](CC(=O)O)NC(=O)CNC(=O)[C@@H](NC(=O)[C@H](C)NC(=O)CNC(=O)[C@H](CCCCN)NC(=O)[C@H](CC(C)C)NC(=O)[C@H](CC(C)C)NC(=O)[C@H](CCCCN)NC(=O)CNC(=O)[C@@H](NC(=O)[C@@H](N)CC(C)C)C(C)C)C(C)C)C(C)C)CSSC[C@@H](C(=O)O)NC1=O", "assay": "RNA-seq, refers to: Trbc1", "test system": "mouse, traumatic brain injury model, frontal cortex and hippocampus", "setting": "dose not given", "how to read": "reference: TBI alone", "quantity": "log2 fold change", "result": -2.83}
{"Structure (SMILES)": "Nc1c2c(nc3c1C(c1ccc(Cl)c(Cl)c1)c1ccc(OCC(=O)c4ccc(Cl)cc4)cc1O3)CCCC2 (stereo not drawn)", "target or system": "Amyloid-beta precursor protein (APP, Homo sapiens, UniProt P05067)", "assay": "Aβ42 self-aggregation, inhibitor, thioflavin T fluorescence", "setting": "1 µM", "quantity": "inhibition", "result": "47%"}
{"Structure (SMILES)": "Nc1ncnc2c1ncn2[C@@H]1O[C@H](C[C@@H](N)CC[C@H](N)C(=O)O)[C@@H](O)[C@H]1O", "target or system": "Genome polyprotein, NS5 methyltransferase domain (Zika virus, UniProt Q32ZE1)", "assay": "NS5 enzyme activity, inhibitor", "setting": "1.562 µM", "quantity": "inhibition", "result": "38.7%"}
{"Structure (SMILES)": "Cc1ncc(C)n2nc(/C=C/c3nc(N4CCCC4)cc(N4CCOCC4)n3)nc12", "target or system": "3',5'-cyclic-AMP phosphodiesterase 4D (PDE4D, Homo sapiens, UniProt Q08499)", "assay": "enzyme activity", "setting": "10 µM", "quantity": "inhibition", "result": "18%"}
{"Structure (SMILES)": "C[C@H]1CN(c2n[nH]c3nc(N[C@H]4CC[C@H](NS(=O)(=O)CCC(F)(F)F)CC4)ncc23)CCO1", "target or system": "Transportin-3 (Homo sapiens, UniProt Q9Y5L0)", "assay": "Kinobeads competition, refers to: TNPO3", "setting": "0.16 µM, unit not given", "how to read": "reference: vehicle", "quantity": "remaining binding", "result": 0.88}
{"Structure (SMILES)": "COc1ccc(N2C(=O)N(c3c(C)cccc3Cl)Cc3cnc(Nc4ccc(C5CCN(C)CC5)cc4OC)nc32)nc1", "target or system": "ZAP70", "assay": "kinase activity", "setting": "0.5 µM", "quantity": "inhibition", "result": "1.12%"}
{"Structure (SMILES)": "O=C(c1ccc(Cl)cc1)N1CCN2C(=O)N(OC(=O)N3CCOc4ccccc43)C(=O)C2C1 (stereo not drawn)", "target or system": "Glutathione S-transferase omega-1 (GSTO1, Homo sapiens, UniProt P78417)", "assay": "MS-based ABPP", "test system": "SW-620 conditioned medium", "setting": "10 µM", "how to read": "reference: compound over DMSO, lower = more inhibition", "quantity": "peptide ratio", "result": 1.12}
{"Structure (SMILES)": "CN(C(=O)n1cnc(-c2ccc[n+]([O-])c2)c1)C1CCCCC1", "target or system": "Gastrin-releasing peptide receptor (GRPR, Homo sapiens, UniProt P30550)", "assay": "radioligand binding", "setting": "50 µM", "quantity": "inhibition", "result": "-2%"}
{"Structure (SMILES)": "O=c1[nH]c2ccsc2c(=O)n1O", "target or system": "Tripartite terminase subunit 3 C-terminal nuclease domain", "assay": "endonuclease activity, ELISA", "setting": "20 µM, with: dsDNA", "quantity": "inhibition", "result": "89%"}
{"Structure (SMILES)": "C[C@@H](O)[C@@H](CO)NC(=O)[C@@H](CCCNC(=N)N)NC(=O)[C@@H]1CCCN1C(=O)[C@@H]1CSSC[C@H](NC(=O)[C@H](Cc2ccccc2)NC(=O)CN2CCN(CC(=O)O)CCN(CC(=O)O)CCN(CC(=O)O)CC2)C(=O)N[C@@H](Cc2ccc(O)cc2)C(=O)N[C@@H](Cc2ccccc2)C(=O)N[C@@H](CCC(N)=O)C(=O)N[C@@H](CC(N)=O)C(=O)N1 [gallium-68 labelled]", "test system": "healthy Wistar rat, small intestine", "setting": "intravenous, 8 MBq, 120 min", "quantity": "tissue uptake", "result": "0.03 %ID/g"}
{"Structure (SMILES)": "N#Cc1ccc(COc2cccc(C(=O)Nc3ccc4c(c3)B(O)OC4)c2)cc1", "target or system": "Genome polyprotein, NS2B-NS3 protease (dengue virus type 2, UniProt P29990)", "assay": "enzyme activity, FRET", "test system": "dengue virus serotype 2", "setting": "50 µM, with: substrate 50 µM", "quantity": "inhibition", "result": "16 ± 1%"}
{"Structure (SMILES)": "O=C(Nc1cccnn1)N1CCN([C@@H]2CCOc3cc(C(F)(F)F)ccc32)CC1", "target or system": "Voltage-dependent N-type calcium channel subunit alpha-1B (Cacna1b, Rattus norvegicus, UniProt Q02294)", "assay": "binding", "setting": "20 µM", "quantity": "inhibition", "result": "-7%"}
{"Structure (SMILES)": "CN1CC[C@@H](c2c(O)cc(O)c3c(=O)cc(-c4ccc(C(F)(F)F)cc4Cl)oc23)[C@@H]1CO", "assay": "refers to: Hypotension", "test system": "relapsed B-cell malignancies or AML", "setting": "oral, 100 mg, grade 3-4, continuous dosing", "quantity": "patients with adverse event", "result": "12.5%"}
{"Structure (SMILES)": "O=C(Nc1cnccc1Cl)N1CCN(Cc2ccc3c(c2)OC(F)(F)O3)CC1", "target or system": "dopamine D4.2 receptor, human", "assay": "binding", "setting": "10 µM, with: [3H]spiperone", "quantity": "inhibition", "result": "13%"}
{"Structure (SMILES)": "COc1cc(Nc2ncc(F)c(Nc3ccc4c(n3)NC(=O)C(C)(C)O4)n2)cc(OC)c1OC", "target or system": "MAPK14", "assay": "KINOMEscan", "setting": "10 µM, p38-alpha", "quantity": "inhibition", "result": "5%"}
{"Structure (SMILES)": "CC(=O)N[C@H]1[C@H]([C@H](O)[C@H](O)CO)OC(C(=O)O)=C[C@@H]1NC(C)=O", "target or system": "Sialidase A (nanA, Streptococcus pneumoniae, UniProt P62575)", "setting": "8 µM, pH 6", "quantity": "inhibition", "result": "0.5 ± 6.5%"}
{"Structure (SMILES)": "O=C(Nc1ccc2c(c1)B(O)OC2)c1ccc(N2CCOCC2)cc1", "target or system": "Genome polyprotein, NS2B-NS3 protease (dengue virus type 2, UniProt P29990)", "assay": "enzyme activity, FRET", "test system": "dengue virus serotype 2", "setting": "50 µM, with: substrate 50 µM", "quantity": "inhibition", "result": "≤ 10%"}
{"Structure (SMILES)": "Cn1cc(-c2cccc(N3CCc4c(sc5c4CC(C)(C)C5)C3=O)c2CO)cc(Nc2ccncn2)c1=O", "target or system": "MAPK14", "assay": "kinase activity, inhibitor, SelectScreen", "setting": "1 µM, with: ATP at apparent Km", "quantity": "inhibition", "result": "-2%"}
